Assay results gathered from unrelated publications.
Each line is one published result; not all experiments were run side by side. “And” joins repeats or separate records; there may be more than shown. ± marks the error that the study gave.

CC(C)C[C@H](NC(=O)[C@@H](CCCCNC(=O)[C@@H](Cc1ccccc1)NC(=O)CCCCCCCNC(=O)CN1CCN(CC(=O)O)CCN(CC(=O)O)CCN(CC(=O)O)CC1)NC(=O)[C@H](Cc1ccc(O)cc1)NC(=O)[C@H](CO)NC(=O)[C@H](Cc1c[nH]c2ccccc12)NC(=O)[C@H](Cc1c[nH]cn1)NC(=O)[C@@H]1CCC(=O)N1)C(=O)N[C@@H](CCCNC(=N)N)C(=O)N1CCC[C@H]1C(=O)NCC(N)=O [indium-111 labelled]  tissue uptake (biodistribution; male athymic nude mice, DU-145 prostate cancer xenograft, liver; intravenous, 0.037 MBq, 1 h post-injection): 0.68 ± 0.11 %ID/g
N#C[C@@H]1CCCN1C(=O)CNC(=O)c1ccnc2ccc(OCCCN3CCN(C(=O)CCc4ccc5c(c4)CN4CCN(Cc6cc(CCC(=O)O)ccc6O)CC(=O)[O][Al-]([18F])([O]C(=O)C4)[O]5)CC3)cc12 (stereo partly drawn)  tissue uptake (BALB/c nude mice, U-87 MG xenograft, lung; 1 h, blocking, with: DOTA-FAPI-04 40 nmol/mouse co-injected): 0.64 ± 0.39 %ID/g
CCCC[C@H](NC(=O)CCCCCCCNC(=O)CN1CCN(CC(=O)O)CCN(CC(=O)O)CC1)C(=O)N[C@H]1CC(=O)NCCCC[C@@H](C(N)=O)NC(=O)[C@H](Cc2c[nH]c3ccccc23)NC(=O)[C@H](CCCNC(=N)N)NC(=O)[C@@H](Cc2ccccc2)NC(=O)[C@H](Cc2c[nH]cn2)NC1=O [fluorine-18 labelled]  tissue uptake (C57 mice B16-F10 melanoma, bone; intravenous, 0.37 MBq, 2 h): 0.37 ± 0.11 %ID/g
Cc1cc(C)n(CCN(CCN)CCCCCCNC(=O)[C@@H](N)Cc2c[nH]cn2)n1.[99Tc+].[C-]#[O+].[C-]#[O+].[C-]#[O+]  tissue uptake (BALB/c nude mice, MCF7 xenograft, intestine; intravenous, 4 h): 6.37 ± 0.82 %IA/g
O=C(NCC1OC2CCC=CCCC2O1)c1ccc([18F])nc1 (stereo not drawn)  tissue uptake (female BALB/c nude mice, LS174T tumour, muscle; intravenous, 60 min, with: unmodified CC49 24 h before): 0.5 ± 0.2 %ID/g
O=C(O)CCCOc1ccc([18F])cc1-c1cc(-c2ccccc2C(F)(F)F)n(-c2ccccc2)n1  tissue uptake (mice, bladder and urine; intravenous, 60 min): 0.08 ± 0.01 %ID/g
COc1ccc(Nc2nc(Nc3ccc(OCCOCC[18F])cc3)ncc2Br)cc1  tissue uptake (ICR mice, S180 tumour-bearing, kidney; intravenous, 370 kBq, 120 min): 6.73 ± 0.11 %ID/g
O=C(NCC1OC2CCC=CCCC2O1)c1ccc(COCCOCCOCC[18F])cc1 (stereo not drawn)  tissue uptake (healthy female BALB/c nude mice, large intestine; intravenous, 7.4 MBq per mouse, 30 min): 7 ± 0.9 %ID/g
COc1ccc2c(c1)C(C)(C)C(/C=C/C1=C(Oc3ccc(C(=O)NCCCCOc4cc(CN(Cc5ccccn5)Cc5ccccn5)cc(CN(Cc5ccccn5)Cc5ccccn5)c4)cc3)C(=C/C=C3/N(CCCCS(=O)(=O)[O-])c4ccc(OC)cc4C3(C)C)CCC1)=[N+]2CCCCS(=O)(=O)[O-].O=[N+]([O-])[O-].O=[N+]([O-])[O-].[99Tc+].[C-]#[O+].[C-]#[O+].[C-]#[O+].[Zn+2]  tissue uptake (healthy BALB/c mice, liver; 12 h): 23.4 %ID/g and 19 %ID/g and 20 %ID/g
COc1ccc(Nc2nc(Nc3ccc(OCCOCCOCC[18F])cc3)ncc2Br)cc1  tissue uptake (ICR mice, S180 tumour-bearing, kidney; intravenous, 370 kBq, 120 min): 6.5 ± 0.91 %ID/g
CCCC[C@H](NC(=O)CNC(=O)CNC(=O)[C@H](CCCCNC(=O)[C@H](CC(=O)O)NC(=O)C(C)c1ccc(CC(C)C)cc1)NC(=O)CN1CCN(CC(=O)O)CCN(CC(=O)O)CCN(CC(=O)O)CC1)C(=O)N[C@H]1CC(=O)NCCCC[C@@H](C(N)=O)NC(=O)[C@H](Cc2c[nH]c3ccccc23)NC(=O)[C@H](CCCNC(=N)N)NC(=O)[C@@H](Cc2ccccc2)NC(=O)[C@H](Cc2c[nH]cn2)NC1=O (stereo partly drawn) [lutetium-177 labelled]  tissue uptake (C57 mice, tumour-bearing, liver; intravenous, 0.037 MBq, 0.5 h): 5 ± 0.37 %ID/g
O=C([O-])CN1CCN(CC(=O)[O-])CCN(CC(=O)NC[C@H]2CC[C@H](C(=O)N[C@H](Cc3cnc4ccccc4c3)C(=O)NCCCC[C@H](NC(=O)N[C@@H](CCC(=O)O)C(=O)O)C(=O)O)CC2)CCN(CC(=O)[O-])CC1.[64Cu+2]  tissue uptake (ex vivo gamma counting; 22Rv1 tumour-bearing mice, liver; intravenous, 0.74 MBq, 24 h post-injection): 16.8 %ID/g

Some of these lines once more:
CC(C)C[C@H](NC(=O)[C@@H](CCCCNC(=O)[C@@H](Cc1ccccc1)NC(=O)CCCCCCCNC(=O)CN1CCN(CC(=O)O)CCN(CC(=O)O)CCN(CC(=O)O)CC1)NC(=O)[C@H](Cc1ccc(O)cc1)NC(=O)[C@H](CO)NC(=O)[C@H](Cc1c[nH]c2ccccc12)NC(=O)[C@H](Cc1c[nH]cn1)NC(=O)[C@@H]1CCC(=O)N1)C(=O)N[C@@H](CCCNC(=N)N)C(=O)N1CCC[C@H]1C(=O)NCC(N)=O [indium-111 labelled]  tissue uptake (biodistribution; male athymic nude mice, DU-145 prostate cancer xenograft, liver; intravenous, 0.037 MBq, 1 h post-injection): 0.68 ± 0.11 %ID/g
